Published values gathered from unrelated publications.
Each line is one published result; not all experiments were run side by side.
PABPC1L2 full length, GST fusion: PABPC1L2, full length, GST fusion (mouse, UniProt A0ABA7IW68)
KAT6A winged helix 1, GST fusion: Histone acetyltransferase KAT6A, winged helix 1, GST fusion (KAT6A, Homo sapiens, UniProt Q92794, residues 1-85)
SALL4 full length isoform B: Sal-like protein 4, full length isoform B (SALL4, Homo sapiens, UniProt Q9UJQ4-2, residues 1-616)
UniProt Q14653, sequence (whole entry, unmodified, looked up): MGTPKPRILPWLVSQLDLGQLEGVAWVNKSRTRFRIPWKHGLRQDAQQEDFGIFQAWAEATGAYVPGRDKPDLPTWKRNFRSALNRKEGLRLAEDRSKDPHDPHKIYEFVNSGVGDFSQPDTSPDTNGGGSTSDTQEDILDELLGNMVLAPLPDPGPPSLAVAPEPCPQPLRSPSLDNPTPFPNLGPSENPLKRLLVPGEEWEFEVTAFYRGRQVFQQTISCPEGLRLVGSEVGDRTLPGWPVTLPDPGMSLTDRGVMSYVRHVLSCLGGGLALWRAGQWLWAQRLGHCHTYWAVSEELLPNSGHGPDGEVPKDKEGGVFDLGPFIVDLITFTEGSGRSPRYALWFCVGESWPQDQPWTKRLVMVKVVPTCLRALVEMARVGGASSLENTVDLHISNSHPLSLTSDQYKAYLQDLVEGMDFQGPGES

Substance | target | assay | system | setting | scale | measurement | result
AUCGCCA | PABPC1L2 full length, GST fusion | RNAcompete | RNA, in vitro | 20 nM, 7-mer, probes averaged, single round | reference: mean of 7-mers, higher = stronger binding | 7-mer Z-score | -0.287
CGTACTGA | KAT6A winged helix 1, GST fusion | protein binding microarray | double-stranded DNA, one strand shown, in vitro | not given, 8-mer, flanks averaged, mean of 2 arrays, mostly near background | reference: not given, higher = stronger binding | E-score | 0.118
ATAACTCG | SALL4 full length isoform B | universal PBM | double-stranded DNA, one strand shown, in vitro | not given, 8-mer, flanks averaged, mean of replicates | higher = stronger binding | E-score | 0.262
GCCTAGCACGACGATTTCAGGTTTCGAGACGTGCTAGTCTTGATTCGCTTGACGCTGCTG | Interferon regulatory factor 3, full length, phosphomimetic (IRF3, Homo sapiens, UniProt Q14653, residues 1-427, S386D/S396D/S398D/S402D/T404D/S405D) | protein-binding microarray | double-stranded DNA, one strand shown, in vitro | 2540 nM top, 60-bp whole probe, added: salmon DNA 0.4 mg/ml | reference: random background probes, higher = stronger binding | fitted relative affinity | 2.44 z-score
GGAGATCA | KAT6A winged helix 1, GST fusion | protein binding microarray | double-stranded DNA, one strand shown, in vitro | not given, 8-mer, flanks averaged, mean of 2 arrays, mostly near background | reference: not given, higher = stronger binding | E-score | -0.098
UUUACGU | PABPC1L2 full length, GST fusion | RNAcompete | RNA, in vitro | 20 nM, 7-mer, probes averaged, single round | reference: mean of 7-mers, higher = stronger binding | 7-mer Z-score | -0.335
CAAAATCC | SALL4 full length isoform B | universal PBM | double-stranded DNA, one strand shown, in vitro | not given, 8-mer, flanks averaged, mean of replicates | higher = stronger binding | E-score | -0.0522
GCCTAGCACCTTGCTTTCCTACTGAAATAGTGCTAGGTCTTGATTCGCTTGACGCTGCTG | Interferon regulatory factor 5, full length, phosphomimetic (IRF5, Homo sapiens, UniProt Q13568-2, residues 1-514, K96S/S451D/S453D/S456D/S462D) | protein-binding microarray | double-stranded DNA, one strand shown, in vitro | 250 nM, 60-bp whole probe, added: salmon DNA 0.4 mg/ml | reference: random background probes, higher = stronger binding | log fluorescence | 1.06 z-score
PhoQ, residues 284 288 289 292 302 303 SNSSNI | PhoP, residues 12 14 15 18 19 NNFVT (Escherichia coli, UniProt P23836) | Sort-seq, measured: YFP reporter | E. coli | PhoQ-PhoP variant library, added: 10 µM Mg2+ | reference: high Mg2+ state, higher = stronger signaling | fold induction | 1.56
AAAAGTTC | SALL4 full length isoform B | universal PBM | double-stranded DNA, one strand shown, in vitro | not given, 8-mer, flanks averaged, mean of replicates | higher = stronger binding | E-score | 0.264

For quick reference, copied from above:
Substance | target | assay | system | setting | scale | measurement | result
AUCGCCA | PABPC1L2 full length, GST fusion | RNAcompete | RNA, in vitro | 20 nM, 7-mer, probes averaged, single round | reference: mean of 7-mers, higher = stronger binding | 7-mer Z-score | -0.287
